Published values gathered from unrelated publications.
Numbered parts are unrelated; each lists some results of a single study. Several values in a cell are separate wells, animals, samples, runs or records. Changes are numbered by the printed parent chain.
Chain of UniProt P20309 (whole entry, looked up): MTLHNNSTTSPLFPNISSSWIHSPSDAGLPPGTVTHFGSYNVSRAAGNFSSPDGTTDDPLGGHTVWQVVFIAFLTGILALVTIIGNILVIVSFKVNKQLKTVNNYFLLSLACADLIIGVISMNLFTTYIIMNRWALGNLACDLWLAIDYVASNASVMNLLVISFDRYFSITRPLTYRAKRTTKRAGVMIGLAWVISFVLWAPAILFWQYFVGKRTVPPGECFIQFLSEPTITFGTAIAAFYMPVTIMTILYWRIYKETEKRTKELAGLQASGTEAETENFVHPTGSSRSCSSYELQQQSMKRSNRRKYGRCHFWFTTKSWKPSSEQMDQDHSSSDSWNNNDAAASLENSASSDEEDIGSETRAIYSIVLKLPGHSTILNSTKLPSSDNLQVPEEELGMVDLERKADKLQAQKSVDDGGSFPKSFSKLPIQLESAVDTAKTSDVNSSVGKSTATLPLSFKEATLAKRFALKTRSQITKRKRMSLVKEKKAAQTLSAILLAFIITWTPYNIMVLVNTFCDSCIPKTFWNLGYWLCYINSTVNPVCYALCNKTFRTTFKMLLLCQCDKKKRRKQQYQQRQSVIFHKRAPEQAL

Block 1 — effect on: peptide-MHC binding; form: peptide; concentration: concentration not given
Target: HLA class I histocompatibility antigen, A alpha chain, allele A*80:01 (Homo sapiens, UniProt P04439)
For `FPSNMMVVT`, binding read “inactive”.
For `VQPWLMVDV`, binding read “inactive”.
`LLDDGWAGE`: binding “inactive”.
`VSRDFDDVY`: binding “inactive”.
`GTEEIRSLY`: binding “inactive”.
`GTGDSRLTY`: binding “inactive”.
Under binding, `QQDTNSAGL` is recorded as “inactive”.
`YLQAKSQVL`: binding “inactive”.

Block 2 — SMILES: CCOc1ccc(Nc2c3c(nc4ccccc24)CCC3)cc1; organism: Leishmania donovani; effect on: parasite growth
For DD8 amphotericin B-resistant, promastigotes; 0.016 µM: inhibition read 2% and 1% and 5%.
The inhibition was 100% (80 µM, intracellular, amastigote).
It gave 100% and 99% for inhibition (DD8 amphotericin B-resistant, promastigotes; 66.66 µM).

Block 3 — target: CCNB3, cyclin fold, Cln2 fusion (human); technique: yeast growth competition, sequencing; sample: yeast; setting: strong parent motif; reference: not given; reading: higher = stronger binding; starting sequence: viral docking peptide; YKVKRRLVFGADD
For `YKDKRRLVFGADD [V3D]`, “normalised enrichment score” read 0.111.
`YKVKRRLVFGRDD [A11R]`: “normalised enrichment score” 1.66.
For `YKVKRRLVFDADD [G10D]`, “normalised enrichment score” read 3.21.
`YKVKIRLVFGADD [R5I]` — result for “normalised enrichment score”: 0.617.
`YKVKRDLVFGADD [R6D]`: “normalised enrichment score” 0.179.
Under “normalised enrichment score”, `YKVKRRLVFGAED [D12E]` is recorded as 1.72.
`YKVKRRLYFGADD [V8Y]`: “normalised enrichment score” 1.61.
`YKVKKRLVLGADD [R5K F9L]`: “normalised enrichment score” -0.0231.

Mixed results
`CO[C@@H]1[C@@H](OC(N)=O)[C@@H](O)[C@H](Oc2ccc3c(O)c(NC(=O)c4ccc(O)c(CC=C(C)C)c4)c(=O)oc3c2C)OC1(C)C` has a surviving fraction of 4.01% and 6.17% and 4.17% (RPE-1 BRCA1-/- PARPi-resistant R1; clonogenic; 100 µM, 12 to 14 d; reference: untreated).
With `CN(C)C(=O)Cn1cc(-c2nc(C3(c4ccc(-c5cnc(N)nc5)cc4)CC3)no2)cn1` the inhibition was -11.2% (Muscarinic acetylcholine receptor M3 (CHRM3, Homo sapiens, UniProt P20309); cell-free assay; 10 µM).
